{"data": "Measured values from different studies", "note": "Lines come from different studies, so protocols differ. Several values in a cell are separate wells, animals, samples, runs or records. Numbers after ± are the reported error."}
{"SMILES": "COc1cccc(-c2n[nH]c(SCc3ccccn3)n2)c1OC", "test system": "Sprague-Dawley rats, both sexes", "conditions": "oral dietary, 10 mg/kg/day, day 90, 3 h", "measurement": "plasma concentration", "value": "483 ng/mL"}
{"SMILES": "C=CC(=O)N1CCC([C@@H]2CCNc3c(C(N)=O)c(-c4ccc(Oc5ccccc5)cc4)nn32)CC1", "test system": "rat plasma", "conditions": "800 ng/mL, 21 days, -80 °C", "scale": "reference: nominal concentration", "measurement": "stability relative error", "value": "2.3%"}
{"SMILES": "O=C(Nc1cnccc1Cl)N1CCN(Cc2ccc3c(c2)OC(F)(F)O3)CC1", "test system": "young women, plasma", "conditions": "oral, 100 mg once daily, day 10, normalized to 10 mg", "measurement": "dose-normalized AUC(0-tau)", "value": "697 ng·h/mL"}
{"SMILES": "O=C(O)CCC(=O)O.[2H]C([2H])([2H])Oc1cc(C)c2[nH]ccc2c1CN1CC[C@@H](C2CC2)C[C@H]1c1ccc(C(=O)O)cc1", "test system": "healthy Chinese subjects", "conditions": "100 mg, single ascending dose", "measurement": "TEAE urine bacteria positive", "value": "16.7%"}
{"SMILES": "CCc1cc(C(=O)NC)c2nccc(N3CCc4c(cc(Cn5ccnc5)cc4-c4cn(C)nc4C(F)(F)F)C3=O)c2c1", "test system": "Sprague Dawley rat", "conditions": "oral, 50 mg/kg once daily, 7 days", "measurement": "liver weight", "value": "12.4 ± 0.85 g"}
{"SMILES": "C[C@@]1(c2cc(NC(=O)c3ccc(C#N)cn3)ccc2F)C=CSC(N)=N1", "test system": "elderly human, CSF", "conditions": "150 mg, single dose", "measurement": "dose-normalised AUC(0-inf)", "value": "2.59 ng·h/mL"}
{"SMILES": "C=CCN1CC(=O)N2[C@@H](Cc3ccc(O)cc3F)C(=O)N(Cc3cccc(N4CC(N5CCN(CC)CC5)C4)n3)C[C@@H]2N1C(=O)NCc1ccccc1", "assay": "refers to: Diarrhea", "test system": "advanced solid tumour patients", "conditions": "oral, 120 mg twice daily, expansion part, grade ≥3", "measurement": "treatment-related adverse events", "value": "0%"}
{"SMILES": "CCc1c2c(nc3ccc(OC(=O)N4CCC(N5CCCCC5)CC4)cc13)-c1cc3c(c(=O)n1C2)COC(=O)[C@]3(O)CC", "test system": "Mrp2(-/-) mouse, small intestine", "conditions": "intraperitoneal, 50 mg/kg/day, 24 h, after 6 doses", "scale": "reference: FVB wild type", "measurement": "increase in Css", "value": "55%"}
{"SMILES": "C=CC(=O)NC1CCN(c2ncc3ncnc(Nc4ccc(Oc5ccc6c(c5)ncn6C)c(C)c4)c3n2)CC1", "test system": "healthy male volunteers, plasma", "conditions": "oral, 60 mg, unlabelled tablet", "measurement": "terminal half-life", "value": "45.2 h"}
{"SMILES": "CNC[C@H](O)[C@@H](O)[C@H](O)[C@H](O)CO.O=C([O-])CN1CCN(CC(=O)[O-])CCN(CC(=O)O)CCN(CC(=O)[O-])CC1.[Gd+3]", "test system": "water", "conditions": "20 °C, 1.0 T, non-self-assembled", "measurement": "r1 relaxivity", "value": "4.13 ± 0.05 mM⁻¹ s⁻¹"}
{"SMILES": "C[C@@H](N)C1CCN(S(=O)(=O)c2cccc3cnccc23)CC1", "test system": "healthy volunteers", "conditions": "150 mg, fasted", "measurement": "participants with limb abscess", "value": "0%"}
{"SMILES": "CCOCC(=O)N1CCC[C@H](C(=O)NCc2nc(-c3ccc(C)nc3)cs2)C1", "test system": "Sprague-Dawley rat, male, urine", "conditions": "intravenous, 1 mg/kg, 24 h", "scale": "reference: dose", "measurement": "urinary excretion", "value": "2.7%"}
{"SMILES": "CC(C)=CC[C@@H](O)C1=CC(=O)c2c(O)ccc(O)c2C1=O", "test system": "plasma", "conditions": "0.5 ng/mL, 4 h, room temperature, stability", "measurement": "measured concentration", "value": "0.49 ± 0.02 ng/mL"}
{"SMILES": "C[C@@H](Nc1cc(F)cc(F)c1)c1cc(C(=O)N(C)C)cc2c(=O)cc(N3CCOCC3)oc12", "assay": "refers to: Rash", "test system": "advanced solid tumour patients", "conditions": "oral, dose not given, dose expansion", "measurement": "related serious adverse events", "value": "0%"}
{"SMILES": "NC[C@@H]1O[C@H](O[C@H]2[C@@H](O)[C@H](O[C@@H]3[C@@H](O)[C@H](N)C[C@H](N)[C@H]3O[C@H]3O[C@H](CO)[C@@H](O)[C@H](O)[C@H]3N)O[C@@H]2CO)[C@H](N)[C@@H](O)[C@@H]1O", "test system": "NSG mice", "conditions": "dose not given, day 8 of treatment", "measurement": "body weight", "value": "23.3 g and 21.9 g and 20.4 g and 22.9 g"}
{"SMILES": "Oc1ccc(/C=C/c2cc(O)cc(O)c2)cc1", "test system": "rat, azoxymethane-injected, blood at sacrifice", "conditions": "10 mg/kg", "measurement": "glycated albumin", "value": "1.9% and 1.8%"}
{"SMILES": "O=C(c1cccnc1-c1ccncc1)N1CCC(O)(Cc2ccccc2)CC1", "test system": "healthy Japanese adults, plasma", "conditions": "oral, 1200 mg single dose", "measurement": "terminal half-life", "value": "5.08 h"}
{"SMILES": "CC(C)[C@H](C(=O)Nc1ccc(C(=O)NO)cc1)c1ccccc1", "test system": "whole blood", "conditions": "100 ng/mL, 5 h, 4 °C, stability on ice", "measurement": "measured concentration", "value": "112 ng/mL"}
{"SMILES": "Cc1ccc(C)c(OCCCC(C)(C)C(=O)O)c1", "assay": "refers to: Half-Life", "test system": "human subjects, plasma", "conditions": "oral, dose not given, added: lopinavir-ritonavir", "scale": "reference: with over without lopinavir-ritonavir", "measurement": "geometric mean ratio", "value": 1}
{"SMILES": "O=C(O)CSc1nnc(Br)n1-c1ccc(C2CC2)c2ccccc12", "test system": "KM mouse, chronic hyperuricaemia model", "conditions": "dose not given, day 11", "measurement": "body weight", "value": "32.2 g and 26.8 g and 34.8 g and 26.6 g and 31.2 g"}
{"SMILES": "Cc1cccc(CNC(=O)c2cn(CCNC(=O)c3ccccc3Sc3c([N+](=O)[O-])ncn3C)c3cc4c(cc3c2=O)OCO4)n1", "test system": "Beagle dog, whole blood", "conditions": "1 µM, 0.25 h", "measurement": "remaining compound", "value": "92.2%"}
{"SMILES": "CCn1c(C(=O)N(C2CC2)C2CC2)cc2c3c(ncn3C)c(Nc3cc(C)n(C)n3)nc21", "test system": "cancer patients", "conditions": "oral, 200 mg twice daily, day 15, 344.0 h", "measurement": "plasma concentration", "value": "5890 ng/mL"}
{"SMILES": "CNCc1ccc(-c2[nH]c3cc(F)cc4c3c2CCNC4=O)cc1", "assay": "refers to: Constipation", "test system": "human patients", "conditions": "oral, dose not given, all grades, all doses", "measurement": "patients with adverse event", "value": "23.2%"}
{"SMILES": "COc1ccc2c(c1)CN(C(=O)CCN1CCC(Cc3ccccc3)CC1)CC[S@@+]2[O-]", "test system": "beagle dog, female", "conditions": "intravenous, 8 mg/kg, day 1, 14-day toxicity study", "measurement": "blood concentration", "value": "5560 ± 2730 ng/mL"}
{"SMILES": "Cc1ccc([C@@H]2O[C@H](CO)[C@@H](O)[C@H](O)[C@H]2O)cc1Cc1ccc(-c2ccc(F)cc2)s1", "test system": "Japanese type 2 diabetes patients", "conditions": "200 mg, day 4, 24 h urine collection", "scale": "reference: baseline", "measurement": "urinary magnesium excretion change", "value": "-11.8 mg"}
{"SMILES": "COc1ncc(-c2nc3c(n2C(C)C)[C@H](c2ccc(Cl)cc2)N(c2cc(Cl)cn(C)c2=O)C3=O)c(OC)n1", "test system": "human patients, plasma", "conditions": "oral, 20 mg, low-dose arm, cycle 2 day 1", "measurement": "median Tmax", "value": "2 h"}
{"SMILES": "NC(CO)(CO)CCc1ccc(Sc2cccc(OCc3ccccc3)c2)cc1Cl", "test system": "human, supine", "conditions": "oral, 3 mg, 0 to 312 h, alone", "measurement": "pulse rate AUEC, median", "value": "18900 h×bpm"}
{"SMILES": "N#Cc1ccc(C(c2ccc(C#N)cc2)n2cncn2)cc1", "test system": "human patients, tumour tissue at surgery", "conditions": "15 mg daily", "measurement": "tumour concentration", "value": "529 ± 81.5 ng/g"}
{"SMILES": "O=C1COCCN1c1ccc(CO[C@@H]2COc3nc([N+](=O)[O-])cn3C2)cc1F", "test system": "aqueous buffer", "conditions": "pH 7.4", "measurement": "aqueous solubility", "value": "30.1 µg/mL"}
{"SMILES": "CC(C)(C(=O)N1CCOc2c(C#N)cncc2C1)C(F)F", "assay": "refers to: Dizziness", "test system": "human", "conditions": "oral, 10 mg once daily, 14 days, multiple ascending dose", "measurement": "subjects with adverse event", "value": "0%"}
{"SMILES": "C[C@@H]1CCO[C@H]2Cn3cc(C(=O)NCc4ccc(F)cc4F)c(=O)c(O)c3C(=O)N12", "test system": "human paediatric patients, weight 6 to under sample A kg, plasma", "conditions": "oral, 4.8 mg granules, 24 h, steady state, geometric mean, population PK post-hoc, N 1", "measurement": "trough concentration (C24)", "value": "252 ng/mL"}
{"SMILES": "Cc1nc(-c2cnc(NC(C)C)n(C)c2=O)ccc1Oc1ccnc(-c2cnn(C)c2)c1", "test system": "Beagle dog, male, plasma", "conditions": "oral, 10 mg/kg, crossover study, mean", "measurement": "AUC(0-inf)", "value": "22000 ng·h/mL"}
{"SMILES": "COc1ccc2c(=O)n(C)c(-c3ccccc3)nc2c1", "test system": "Sprague-Dawley rat, male, large intestine", "conditions": "oral, 30 mg/kg, 0.5 h", "measurement": "concentration", "value": "34.1 ng/mL"}
{"SMILES": "N#Cc1ccc2c(c1)[C@H]1CCCN(C(=O)c3ccc4[nH]cnc4c3)[C@H]1C2", "test system": "human", "conditions": "360 mg, end of trial", "measurement": "maximum ACTH level", "value": "10.8 pmol/L"}
{"SMILES": "CCO", "test system": "human", "conditions": "concentration not given, treatment-emergent adverse event", "measurement": "blood fibrinogen decreased", "value": "0%"}
{"SMILES": "CN(C(=O)n1cnc(-c2ccc[n+]([O-])c2)c1)[C@H]1CC[C@H](O)CC1", "test system": "Wistar rat, midbrain", "conditions": "oral, 10 mg/kg of BIA 10-2474, 4 h, single dose", "measurement": "concentration", "value": "14.1 ± 0.4 ng/g"}
{"SMILES": "C[C@H](CCC(=O)NCC(=O)O)[C@H]1CC[C@H]2[C@@H]3[C@H](O)C[C@@H]4C[C@H](O)CC[C@]4(C)[C@H]3C[C@H](O)[C@]12C", "test system": "human, plasma", "conditions": "endogenous control diurnal", "scale": "reference: daily mean concentration", "measurement": "relative peak deviation", "value": "181 ± 19%"}
{"SMILES": "CN(C)C/C=C/C(=O)Nc1cc2c(Nc3ccc(F)c(Cl)c3)ncnc2cc1O[C@H]1CCOC1", "test system": "200 mM SBE-β-CD in water", "conditions": "24 h", "measurement": "aqueous solubility", "value": "1310 ± 39 µM"}
{"SMILES": "COc1nnc2ccc(N3CCC(c4ccc(OCCN5CCN(C)C(=O)[C@H]5C)cc4)CC3)nn12", "test system": "patients, plasma", "conditions": "oral, 10 mg twice daily, multiple dose, monotherapy", "measurement": "terminal half-life", "value": "2.39 h"}
{"SMILES": "C[C@@H](N)COc1ccc(-c2cnc3ccc(N[C@H](C)c4cccc(F)c4)nn23)cc1", "test system": "human, plasma", "conditions": "recommended dose, total", "measurement": "average steady-state concentration", "value": "772 nmol/L"}
{"note": "For quick reference, copied from above:"}
{"SMILES": "C=CC(=O)N1CCC([C@@H]2CCNc3c(C(N)=O)c(-c4ccc(Oc5ccccc5)cc4)nn32)CC1", "test system": "rat plasma", "conditions": "800 ng/mL, 21 days, -80 °C", "scale": "reference: nominal concentration", "measurement": "stability relative error", "value": "2.3%"}
{"SMILES": "O=C(Nc1cnccc1Cl)N1CCN(Cc2ccc3c(c2)OC(F)(F)O3)CC1", "test system": "young women, plasma", "conditions": "oral, 100 mg once daily, day 10, normalized to 10 mg", "measurement": "dose-normalized AUC(0-tau)", "value": "697 ng·h/mL"}
{"SMILES": "O=C(O)CCC(=O)O.[2H]C([2H])([2H])Oc1cc(C)c2[nH]ccc2c1CN1CC[C@@H](C2CC2)C[C@H]1c1ccc(C(=O)O)cc1", "test system": "healthy Chinese subjects", "conditions": "100 mg, single ascending dose", "measurement": "TEAE urine bacteria positive", "value": "16.7%"}
{"SMILES": "CCc1cc(C(=O)NC)c2nccc(N3CCc4c(cc(Cn5ccnc5)cc4-c4cn(C)nc4C(F)(F)F)C3=O)c2c1", "test system": "Sprague Dawley rat", "conditions": "oral, 50 mg/kg once daily, 7 days", "measurement": "liver weight", "value": "12.4 ± 0.85 g"}
